Measurements from different studies.
Protocols differ between the studies behind these lines.
Organism: Candida albicans

SMILES | assay | test system | setting | MIC
O=C(CCCN1CCC(O)(c2ccc(Cl)cc2)CC1)c1ccc(F)cc1 |  | DSY654 (Cdr efflux pump knockout) | 24 h, 35 °C | 4 µg/mL
CC(C)C[C@H](NC(=O)[C@H](CC(C)C)NC(=O)[C@H](CCCCN)NC(=O)CNC(=O)[C@H](CC(C)C)NC(=O)CNC(=O)[C@H](CO)NC(=O)[C@H](CC(C)C)NC(=O)[C@H](CC(C)C)NC(=O)[C@H](CO)NC(=O)[C@H](CCCCN)NC(=O)[C@H](CC(C)C)NC(=O)[C@H](CCCCN)NC(=O)[C@H](CCCCN)NC(=O)[C@H](CC(C)C)NC(=O)[C@H](CC(C)C)NC(=O)[C@H](CC(C)C)NC(=O)CNC(=O)[C@H](CO)NC(=O)[C@H](Cc1c[nH]c2ccccc12)NC(=O)[C@@H](N)CCCCN)C(=O)O | broth microdilution | ATCC 10231 | 44 h, 37 °C | > 100 µM
Cc1ccc2nc(C)c(C(=O)C(=O)NCc3ccc(N(C)C)cc3)n2c1 | microbial growth, broth dilution |  |  | > 128 µM
CCOC(=O)C(Cc1ccccc1)NC(=O)N1CCN(CC(OCc2cccc(C)c2)c2ccc(Cl)cc2)CC1 (stereo not drawn) | microbial growth, broth dilution | DSY654 |  | 4 µg/mL
Nc1ccccc1C(=O)OCC#CCOC(=O)c1ccccc1N |  |  |  | 4 µg/mL
CC[C@H](C)[C@H](NC(=O)[C@H](C)NC(=O)[C@@H](NC(=O)[C@H](CC(=O)O)NC(=O)[C@H](CCCCN)NC(=O)[C@H](CO)NC(=O)[C@@H](NC(=O)[C@H](CC(N)=O)NC(=O)[C@H](C)NC(=O)[C@@H](NC(=O)[C@H](CCC(=O)O)NC(=O)[C@H](CCCCN)NC(=O)[C@@H](NC(=O)[C@@H](NC(=O)[C@H](Cc1c[nH]cn1)NC(=O)[C@H](CCCCN)NC(=O)[C@@H](NC(=O)[C@H](CCCCN)NC(=O)[C@H](CCCCN)NC(=O)[C@@H](NC(=O)[C@H](CC(C)C)NC(=O)[C@H](CCCCN)NC(=O)[C@H](CC(N)=O)NC(=O)[C@H](Cc1ccccc1)NC(=O)[C@H](CCCNC(=N)N)NC(=O)[C@H](CCCCN)NC(=O)[C@H](CCCNC(=N)N)NC(=O)[C@H](Cc1ccccc1)NC(=O)CN)C(C)C)C(C)C)[C@@H](C)O)[C@@H](C)CC)[C@@H](C)O)C(C)C)C(C)C)C(=O)N[C@H](C(=O)N[C@@H](C)C(=O)NCC(=O)N[C@@H](CO)C(=O)NCC(=O)N[C@H](C(=O)N[C@@H](C)C(=O)N[C@H](C(=O)NCC(=O)N[C@@H](C)C(=O)N[C@@H](C)C(=O)N[C@@H](CCSC)C(N)=O)C(C)C)C(C)C)C(C)C | broth microdilution | FH2173, CAMHB |  | > 1020 µg/mL
CCCCCC(=O)NCCCC[C@H](NC(=O)CCCCC)C(=O)N[C@@H](CCCCNC(=O)CCCCC)C(=O)NCC(=O)NCC(=O)NCC(=O)N[C@@H](CS)C(=O)N[C@@H](CCCNC(=N)N)C(=O)N[C@@H](CCCCN)C(=O)N1CCC[C@H]1C(=O)N[C@@H](CS)C(=O)N[C@@H](CCCNC(=N)N)C(=O)N[C@@H](CCCCN)C(=O)N1CCC[C@H]1C(N)=O | broth microdilution | 58288, RPMI-1640 | 48 h, 30 °C | 8 µM
CCC(=O)c1ccc(OCC(O)CN2CCN(C(c3ccccc3)c3ccccc3)CC2)cc1 (stereo not drawn) | microbial growth, broth dilution | DSY654 |  | 8 µg/mL
CCCCCCCCCCCC(=O)NCCCC[C@H](NC(=O)CCCCCCCCCCC)C(=O)N[C@@H](CCCCNC(=O)CCCCCCCCCCC)C(=O)NCC(=O)NCC(=O)NCC(=O)N[C@@H](CS)C(=O)N[C@@H](CCCNC(=N)N)C(=O)N[C@@H](CCCCN)C(=O)N1CCC[C@H]1C(=O)N[C@@H](CS)C(=O)N[C@@H](CCCNC(=N)N)C(=O)N[C@@H](CCCCN)C(=O)N1CCC[C@H]1C(N)=O | broth microdilution | fluconazole-resistant 56214, RPMI-1640 | 48 h, 30 °C | > 128 µM
COC(=O)c1ccc(COC(CN2CCN(C(=O)Nc3ccccc3C)CC2)c2ccc(Cl)cc2)cc1 (stereo not drawn) | microbial growth, broth dilution | DSY654 |  | 4 µg/mL
CCCCCCCC(=O)NCCCC[C@H](NC(=O)CCCCCCC)C(=O)N[C@@H](CCCCNC(=O)CCCCCCC)C(=O)NCC(=O)NCC(=O)NCC(=O)N[C@@H](CS)C(=O)N[C@@H](CCCNC(=N)N)C(=O)N[C@@H](CCCCN)C(=O)N1CCC[C@H]1C(=O)N[C@@H](CS)C(=O)N[C@@H](CCCNC(=N)N)C(=O)N[C@@H](CCCCN)C(=O)N1CCC[C@H]1C(=O)N[C@@H](CS)C(=O)N[C@@H](CCCNC(=N)N)C(=O)N[C@@H](CCCCN)C(=O)N1CCC[C@H]1C(N)=O | broth microdilution | CGMCC 2.209, RPMI-1640 | 48 h, 30 °C | 16 µM
C=C1NC(=O)C2C[S+]([O-])CC3NC(=O)C(CSC(C)C(NC(=S)C(Cc4cnc[nH]4)NC(=O)c4csc(C(C)NC(C)=O)n4)C(=O)N[C@H](CC(C)C(=O)NC(=O)CC(C(=O)O)NC(=O)C(C)NC3=O)C(=O)N2)NC(=O)[C@@H]2CCCN2C(=O)[C@@H](CC(C)C)NC1=O (stereo partly drawn) | EUCAST broth microdilution | clinical isolate, RPMI 1640 with MOPS | pH 7.0, 37 °C, 2% glucose | > 32 µg/mL
Cc1ccc2nc(C)c(C(=O)C(=O)N(C)C)n2c1 | microbial growth, broth dilution |  |  | > 128 µM
N/C(=C\C(=O)O)CP(=O)(O)O | microbial growth, broth dilution | SC5314 | 24 h | > 128 µg/mL
CC[C@H](C)[C@H](NC(=O)[C@H](CCCCN)NC(=O)[C@@H](NC(=O)[C@@H](NC(=O)[C@H](CC(C)C)NC(=O)[C@H](CCCNC(=N)N)NC(=O)[C@@H](NC(=O)[C@H](CC(C)C)NC(=O)[C@H](CCCNC(=N)N)NC(=O)CNC(=O)[C@H](Cc1ccccc1)NC(=O)[C@@H](N)CCCNC(=N)N)[C@@H](C)CC)[C@@H](C)CC)C(C)C)C(=O)N[C@@H](C)C(=O)N[C@@H](CCCNC(=N)N)C(=O)N[C@@H](CCCNC(=N)N)C(=O)N[C@@H](C)C(=O)N[C@@H](Cc1c[nH]cn1)C(=O)N[C@@H](CCCNC(=N)N)C(=O)N[C@@H](C)C(=O)N[C@@H](CCCNC(=N)N)C(=O)N[C@@H](CO)C(=O)N[C@@H](C)C(=O)N[C@H](C(=O)N[C@@H](CCCCN)C(=O)N[C@@H](C)C(=O)N[C@@H](C)C(=O)N[C@@H](CO)C(=O)N[C@@H](CC(N)=O)C(=O)N[C@H](C(=O)N[C@@H](C)C(=O)N[C@@H](C)C(=O)N[C@@H](CC(C)C)C(=O)N[C@@H](C)C(=O)N[C@@H](Cc1c[nH]cn1)C(=O)NCC(=O)N[C@@H](C)C(=O)O)C(C)C)C(C)C | broth microdilution |  | 36 h, 35 °C | > 8.25 µM
COC(=O)c1ccc(COC(CN2CCN(C(=O)NCc3ccc(OC)cc3)CC2)c2ccc(Cl)cc2)cc1 (stereo not drawn) |  | DSY654 (Cdr efflux pump knockout) | 24 h, 35 °C | 8 µg/mL
CCCCCCCC(=O)NCCCC[C@H](NC(=O)CCCCCCC)C(=O)N[C@@H](CCCCNC(=O)CCCCCCC)C(=O)NCC(=O)NCC(=O)NCC(=O)N[C@@H](CS)C(=O)N[C@@H](CCCNC(=N)N)C(=O)N[C@@H](CCCCN)C(=O)N1CCC[C@H]1C(=O)N[C@@H](CS)C(=O)N[C@@H](CCCNC(=N)N)C(=O)N[C@@H](CCCCN)C(=O)N1CCC[C@H]1C(=O)N[C@@H](CS)C(=O)N[C@@H](CCCNC(=N)N)C(=O)N[C@@H](CCCCN)C(=O)N1CCC[C@H]1C(=O)N[C@@H](CS)C(=O)N[C@@H](CCCNC(=N)N)C(=O)N[C@@H](CCCCN)C(=O)N1CCC[C@H]1C(N)=O | broth microdilution | 14936, RPMI-1640 | 48 h, 30 °C | 8 µM
CC[C@H](C)[C@H](NC(=O)[C@H](CCCCN)NC(=O)[C@@H](NC(=O)[C@@H](NC(=O)[C@H](CC(C)C)NC(=O)[C@H](CCCNC(=N)N)NC(=O)[C@@H](NC(=O)[C@H](CC(C)C)NC(=O)[C@H](CCCNC(=N)N)NC(=O)CNC(=O)[C@H](Cc1ccccc1)NC(=O)[C@@H](N)CCCNC(=N)N)[C@@H](C)CC)[C@@H](C)CC)C(C)C)C(=O)N[C@@H](C)C(=O)N[C@@H](CCCNC(=N)N)C(=O)N[C@@H](CCCNC(=N)N)C(=O)N[C@@H](C)C(=O)N[C@@H](Cc1c[nH]cn1)C(=O)N[C@@H](CCCNC(=N)N)C(=O)N[C@@H](C)C(=O)N[C@@H](CCCNC(=N)N)C(=O)N1CCC[C@H]1C(=O)N[C@@H](C)C(=O)N[C@H](C(=O)N[C@@H](CCCCN)C(=O)N[C@@H](C)C(=O)N[C@@H](C)C(=O)N[C@@H](CO)C(=O)N[C@@H](CC(N)=O)C(=O)N[C@H](C(=O)N[C@@H](C)C(=O)N[C@@H](CCC(=O)O)C(=O)N[C@@H](CC(C)C)C(=O)N[C@@H](C)C(=O)N[C@@H](Cc1c[nH]cn1)C(=O)NCC(=O)N[C@@H](CCC(=O)O)C(N)=O)C(C)C)C(C)C | broth microdilution |  | 36 h, 35 °C | > 7.99 µM
